Experimental data from different studies.
Compare with care: the assays were run in different laboratories.

SMILES | cell line | assay | setting | scale | endpoint | value
CN1/C(=C/C=C2\CCCC(/C=C/C3=[N+](C)c4ccccc4C3(C)C)=C2SCCC(=O)N[C@@H](Cc2ccccc2)C(=O)N[C@@H](Cc2ccccc2)C(=O)N[C@@H](CCCCNC(=O)CCC(=O)O)C(=O)N[C@@H](CCCCNC(=O)CCCC[C@@H]2SC[C@@H]3NC(=O)N[C@@H]32)C(=O)O)C(C)(C)c2ccccc21 | 4T1 | CCK-8 | 20 µM, 4 h then 24 h, dark | baseline: untreated | viability | > 80%
N=C(N)NCCC[C@H](NC(=O)[C@H](CCCNC(=N)N)NC(=O)[C@@H]1CCCN1C(=O)[C@H](CCCNC(=N)N)NC(=O)[C@H](CCCNC(=N)N)NC(=O)[C@H](CCCNC(=N)N)NC(=O)[C@H](Cc1c[nH]c2ccccc12)NC(=O)[C@H](CCCNC(=N)N)NC(=O)[C@H](CCCNC(=N)N)NC(=O)[C@H](CCCNC(=N)N)NC(=O)[C@H](CCCNC(=N)N)NC(=O)[C@H](CCCNC(=N)N)NC(=O)[C@H](Cc1c[nH]c2ccccc12)NC(=O)[C@H](CCCNC(=N)N)NC(=O)[C@H](CCCNC(=N)N)NC(=O)[C@H](Cc1ccc(O)cc1)NC(=O)[C@H](CCCNC(=N)N)NC(=O)[C@H](CCCNC(=N)N)NC(=O)[C@H](CCCNC(=N)N)NC(=O)[C@@H](N)Cc1c[nH]c2ccccc12)C(N)=O | MCF-10A | – | 2.5, 18.2, 40.0 µM, 30 min, 37 °C, outcome no effect | – | zeta potential change | no effect
CC1=CCC23OC2(C)CCC2C(C[N+](C)(C)C)C(=O)OC2C13.[I-] (stereo not shown) | SW-620 | cell growth or viability, SRB | 8.3 µM | – | inhibition | 73.4%
CC(=O)N1CCCC[C@H]1C(=O)NC(C)(C)C(=O)N1CCCC[C@H]1C(=O)NC(C)(C)C(=O)NC(C)(C)C(=O)N[C@@H](CC(C)C)C(=O)NC[C@@H](C)C(=O)NCC(=O)NC(C)(C)C(=O)NC(C)(C)C(=O)N1CCCC[C@H]1C(=O)NC(C)(C)C(=O)NCC(=O)N[C@@H](CC(C)C)C(=O)NC(C)(C)C(=O)N[C@@H](CC(C)C)C[N+]1=C2CCCN2CCC1 | 39 cancer cell lines | – | 48 h, mean over panel | – | GI50 | 0.933 µM
CCc1ccc(C(=O)N[C@@H](CO)C(=O)N[C@H](C(=O)N2CCC[C@H]2C(=O)N[C@@H](CC(N)=O)C(=O)NCC(=O)N[C@@H](CC(C)C)C(=O)O)[C@@H](C)OP(=O)(O)O)cc1 | HeLa-H2B-GFP, QQ transfected | – | 30 µM, 24 h | – | aberrant mitoses | 47.9%
N=C(N)Nc1ccc(-c2nc3ccc(-c4ccc5nc(-c6ccc(NC(=N)N)cc6)[nH]c5c4)cc3[nH]2)cc1 | wild-type corneal endothelial cells | – | concentration not given | – | MBNL1 exon 5 splicing | no effect
C[C@H]1C(OCCCCCCCCCCCC[P+](c2ccccc2)(c2ccccc2)c2ccccc2)O[C@@H]2O[C@@]3(C)CCC4[C@H](C)CCC1[C@]42OO3 (stereo partly shown) | T24 | MTT | 72 h | baseline: HUVEC IC50 over T24 IC50 | selectivity index | 0.65
CC=C(C)C(=O)OC1C(O)C2OC(COC(=O)CCCCCCCCCC(CCCCC)OC3OC(C)C(OC(C)=O)C(O)C3O2)C1OC(=O)C=Cc1ccccc1 (stereo not shown) | U-937 | – | – | baseline: IC50 MCF-10A over IC50 U-937 | selectivity index | 2.77
CC[C@H]1OC(=O)[C@H](C(C)C)NC(=O)[C@H](C)OC(=O)[C@@H](C(C)C)NC(=O)[C@@H](C(C)C)OC(=O)[C@H](C(C)C)NC(=O)[C@H](C)OC(=O)[C@@H](C(C)C)NC(=O)[C@@H](C(C)C)OC(=O)[C@H](C(C)C)NC(=O)[C@H](C)OC(=O)[C@@H](C(C)C)NC1=O | U-87 MG | PI staining flow cytometry | 0.8 µM, 12 h | baseline: untreated | G0/G1 phase cells increase | 40.9%
CC/C=C\C/C=C\C/C=C\C/C=C\C/C=C\C/C=C\CCC(=O)Nc1ccn(C2OC(CO)C(O)C2(F)F)c(=O)n1 (stereo not shown) | U-251 | NCI60 screen | – | – | CC50 | 43.9 µM
CC[C@H](C)[C@H](NC(=O)[C@@H](NC(=O)[C@H](CC(N)=O)NC(=O)[C@H](CCC(N)=O)NC(=O)[C@@H]1CCCN1C(=O)[C@@H](NC(=O)[C@H](Cc1ccc(O)cc1)NC(=O)CNC(=O)[C@H](Cc1ccc(O)cc1)NC(=O)[C@H](Cc1c[nH]c2ccccc12)NC(=O)[C@H](Cc1c[nH]cn1)NC(=O)[C@H](Cc1ccc(O)cc1)NC(=O)CNC(=O)CCOCCOCCOCCNC(=S)Nc1ccc(C2=[N+]3C(=C(c4ccc(OC)cc4)c4cc(Cl)c(-c5ccc(OC)cc5)n4[B-]3(F)F)C=C2Cl)cc1)[C@@H](C)O)C(C)C)C(N)=O | HEp-2 | – | 10 µM, 24 h | baseline: unconjugated BODIPY 5 | cellular uptake | ~30 fold
NC(=O)CCCCC=C1C(=O)OC1CCc1ccccc1 (stereo not shown) | ABHD16A-/- mouse peritoneal macrophages | ELISA | 1 µM, 4 h, with: basal or LPS | – | IL-6 and TNF-α secretion | no effect
N[C@@H](CCC(=O)N[C@@H](CS[Se]Cc1ccc(-c2cc(C(F)(F)F)nn2-c2ccc(S(N)(=O)=O)cc2)cc1)C(=O)NCC(=O)O)C(=O)O | UACC-903 | – | 50 µM | – | caspase-3/7 activity | decreased

A few entries again:
SMILES | cell line | assay | setting | scale | endpoint | value
CC(=O)N1CCCC[C@H]1C(=O)NC(C)(C)C(=O)N1CCCC[C@H]1C(=O)NC(C)(C)C(=O)NC(C)(C)C(=O)N[C@@H](CC(C)C)C(=O)NC[C@@H](C)C(=O)NCC(=O)NC(C)(C)C(=O)NC(C)(C)C(=O)N1CCCC[C@H]1C(=O)NC(C)(C)C(=O)NCC(=O)N[C@@H](CC(C)C)C(=O)NC(C)(C)C(=O)N[C@@H](CC(C)C)C[N+]1=C2CCCN2CCC1 | 39 cancer cell lines | – | 48 h, mean over panel | – | GI50 | 0.933 µM
CC[C@H](C)[C@H](NC(=O)[C@@H](NC(=O)[C@H](CC(N)=O)NC(=O)[C@H](CCC(N)=O)NC(=O)[C@@H]1CCCN1C(=O)[C@@H](NC(=O)[C@H](Cc1ccc(O)cc1)NC(=O)CNC(=O)[C@H](Cc1ccc(O)cc1)NC(=O)[C@H](Cc1c[nH]c2ccccc12)NC(=O)[C@H](Cc1c[nH]cn1)NC(=O)[C@H](Cc1ccc(O)cc1)NC(=O)CNC(=O)CCOCCOCCOCCNC(=S)Nc1ccc(C2=[N+]3C(=C(c4ccc(OC)cc4)c4cc(Cl)c(-c5ccc(OC)cc5)n4[B-]3(F)F)C=C2Cl)cc1)[C@@H](C)O)C(C)C)C(N)=O | HEp-2 | – | 10 µM, 24 h | baseline: unconjugated BODIPY 5 | cellular uptake | ~30 fold
